Assay results collected from several papers.
Numbered parts are unrelated; each lists some results of a single study. Positions count from the first letter of the parent shown.

Block 1
Target: CCNB2, cyclin fold, Cln2 fusion (human)
Method: yeast growth competition, sequencing
Sample: yeast
Setting: weak parent motif
Relative to: not given
Reading: higher = stronger binding
Quantity: normalised enrichment score
Starting sequence: MASTL docking peptide (human); PMIAKNLMCELDE
PMIANNLMCELDE [K5N]: -0.135
PMIAKNLMCESDE [L11S]: -0.165
PMIAKNLMCELRE [D12R]: 0.171
PMIPKNLMCELDE [A4P]: 0.431
PMIAKNVMCELDE [L7V]: -0.0786
PMIACNLMCELDE [K5C]: 0.246
PLIAKNLMCELDE [M2L]: 0.548
PTIAKNLMCELDE [M2T]: 1.06
PMIAKNLPCELDE [M8P]: -0.385
PMIAKNLMKELDE [C9K]: 0.955
PMIAKNLMCEWDE [L11W]: 0.718
PMGAKNLMCELDE [I3G]: 0.183
PMIAKNPMCELDE [L7P]: -0.0244
PMIAKNLMCQLDE [E10Q]: 0.587
PMSAKNLMCELDE [I3S]: -0.123
PMIRKNLMCELDE [A4R]: 1.48
PMIAKNLFCELDE [M8F]: 0.749
PMIAKNLVCELDE [M8V]: 0.403
PGIAKNLMCELDE [M2G]: 1.1
PMPAKNLMCELDE [I3P]: 0.367
PMIAKSLMCELDE [N6S]: 0.134
PMIAKNLMAELDE [C9A]: 1.6
PMIGKNLMCELDE [A4G]: -0.081
PMIAKNLMCSLDE [E10S]: 0.148
PMIAKNMMCELDE [L7M]: -0.351

Block 2
Target: ABI1, truncated, D143A, DHFR fusion (Arabidopsis thaliana)
Method: DHFR PCA, deep sequencing
Sample: yeast
Setting: methotrexate growth selection, single substitutions
Together with: (+)-ABA 4.8 µM
Relative to: wild-type fitted maximum
Reading: higher = stronger binding
Quantity: relative binding score
Starting sequence: PYL1, truncated, DHFR fusion (Arabidopsis thaliana); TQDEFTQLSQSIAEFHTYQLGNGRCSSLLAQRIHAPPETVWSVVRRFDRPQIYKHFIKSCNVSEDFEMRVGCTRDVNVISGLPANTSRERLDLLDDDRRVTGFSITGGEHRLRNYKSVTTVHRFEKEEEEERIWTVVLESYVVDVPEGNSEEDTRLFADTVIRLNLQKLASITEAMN
Q10F: 32.3%
L164S: 61.6%
I57D: -0.819%
C72L: 25.5%
E125I: 79.5%
A30Q: 65.4%
L91D: 2.42%
G148R: 3.75%
A170G: 34.9%
T1R: 69.8%
V100K: -12.4%
T154N: 3.51%
S42T: 55.9%
L28E: -5.59%
P37K: -9.14%
D65F: 38.3%
S117P: 16.8%
L169N: 17.6%
L156E: 36.4%
R46V: 11.2%
L169W: 2.35%
T1H: 71.5%
S9M: 55%
N85L: 77.1%
K116D: -3.35%

Block 3
Target: Histone acetyltransferase KAT6A, winged helix 2, GST fusion (KAT6A, Homo sapiens, UniProt Q92794, residues 85-181)
Method: protein binding microarray
Molecule type: double-stranded DNA, one strand shown
Sample: in vitro
Concentration: not given
Setting: 8-mer, flanks averaged, mean of 2 arrays, mostly near background
Relative to: not given
Reading: higher = stronger binding
Quantity: E-score
Target sequence (chain): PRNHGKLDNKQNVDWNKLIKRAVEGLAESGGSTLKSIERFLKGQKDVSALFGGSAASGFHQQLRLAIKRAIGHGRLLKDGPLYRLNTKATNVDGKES
CGCTCTAA: 0.00928
ACTTAATG: 0.0354
GTAAGGAC: -0.0356
AGAGGACG: 0.0859
CTTATAGC: -0.0345
CAGTAATG: -0.0158
ACACCTGA: -0.15
GTCTCAAC: -0.0749
CAGACATG: -0.00323
ACCCTCCA: 0.0146
CCTTTGCG: 0.112
CTTGTATA: 0.026
GCGCCTAA: 0.139
CTCATCTC: -0.0601
CACATTTC: 0.0724
CTACAGAC: -0.149
TCCAGTCA: -0.224
GCGAACAA: 0.26
AGTGATTA: -0.0987
GGGACAGA: -0.0854
ACAAAAAG: 0.132
AGTGCCAT: -0.181
ATAATGGG: -0.0558
AACCGCCA: -0.00959
AAGATTAT: -0.149

Block 4
Target: CEBPD, bZIP domain (human)
Method: DHFR protein complementation
Sample: yeast
Setting: single substitutions, most at no-binding floor
Relative to: wild-type JUN-FOS pair
Reading: higher = stronger binding
Quantity: binding fitness
Starting sequence: JUN, bZIP domain (human); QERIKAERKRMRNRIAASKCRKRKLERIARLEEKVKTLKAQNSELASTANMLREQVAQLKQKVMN; partner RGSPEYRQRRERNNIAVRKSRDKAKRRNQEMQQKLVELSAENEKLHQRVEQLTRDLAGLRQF
V56Q: -1.38 natural log
E44Y: -1.17 natural log
E44F: -1.38 natural log
A57E: -1.21 natural log
E54R: -1.34 natural log
R53W: -1.4 natural log
A46S: -1.4 natural log
Q55E: -1.41 natural log
V35I: -1.17 natural log
E32D: -1.41 natural log
N42T: -1.39 natural log
V56A: -1.48 natural log
I28Q: -1.19 natural log
E33T: -1.42 natural log
L31T: -1.4 natural log
N42C: -1.28 natural log
E33L: -1.42 natural log
V56W: -1.46 natural log
S47F: -1.39 natural log
A46L: -1.34 natural log
L59G: -1.47 natural log
A29R: -1.35 natural log
A46T: -1.3 natural log
L52I: -1.25 natural log
L52C: -1.59 natural log

Block 5
Target: Sal-like protein 4, full length isoform A (SALL4, Homo sapiens, UniProt Q9UJQ4, residues 1-1053)
Chain of UniProt Q9UJQ4 (whole entry, looked up): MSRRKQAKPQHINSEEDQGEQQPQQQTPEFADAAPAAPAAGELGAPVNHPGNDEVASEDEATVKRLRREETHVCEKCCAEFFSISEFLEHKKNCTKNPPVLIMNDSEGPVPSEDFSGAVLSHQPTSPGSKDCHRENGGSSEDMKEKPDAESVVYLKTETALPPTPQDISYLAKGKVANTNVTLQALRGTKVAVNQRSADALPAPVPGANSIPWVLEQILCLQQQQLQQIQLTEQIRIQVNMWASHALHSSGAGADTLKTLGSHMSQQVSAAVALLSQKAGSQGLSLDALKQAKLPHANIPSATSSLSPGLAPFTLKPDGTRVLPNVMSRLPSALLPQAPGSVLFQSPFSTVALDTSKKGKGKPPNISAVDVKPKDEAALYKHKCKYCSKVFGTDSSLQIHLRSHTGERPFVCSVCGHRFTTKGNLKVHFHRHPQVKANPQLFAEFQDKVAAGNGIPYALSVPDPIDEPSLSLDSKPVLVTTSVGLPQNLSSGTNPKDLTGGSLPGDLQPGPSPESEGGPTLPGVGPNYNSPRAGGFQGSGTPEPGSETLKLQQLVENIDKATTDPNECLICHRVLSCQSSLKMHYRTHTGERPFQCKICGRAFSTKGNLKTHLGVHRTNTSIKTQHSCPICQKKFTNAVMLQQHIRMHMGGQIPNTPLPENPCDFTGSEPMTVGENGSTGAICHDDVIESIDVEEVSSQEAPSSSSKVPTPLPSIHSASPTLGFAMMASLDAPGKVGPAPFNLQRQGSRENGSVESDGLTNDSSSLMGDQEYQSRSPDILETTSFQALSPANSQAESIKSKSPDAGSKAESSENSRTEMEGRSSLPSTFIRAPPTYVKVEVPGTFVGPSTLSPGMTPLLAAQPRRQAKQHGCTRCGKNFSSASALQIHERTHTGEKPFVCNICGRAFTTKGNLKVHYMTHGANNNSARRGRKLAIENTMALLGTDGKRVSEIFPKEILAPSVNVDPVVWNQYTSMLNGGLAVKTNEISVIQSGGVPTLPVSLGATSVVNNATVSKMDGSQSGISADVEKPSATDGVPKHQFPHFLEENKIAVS
Method: universal PBM
Molecule type: double-stranded DNA, one strand shown
Sample: in vitro
Concentration: 600 nM
Setting: 8-mer, flanks averaged, mean of replicates
Reading: higher = stronger binding
Quantity: E-score
CTTCTCAA: 0.103
AAGCGCTG: -0.12
GTTTTGAA: 0.282
AGCACTTG: -0.238
CAAGATGG: -0.105
AACCTGGC: -0.195
AAACCATT: 0.193
GAGACCGA: -0.245
ATTGGAGG: -0.111
ACCAAAAG: 0.197
CATATGCC: 0.0798
TCAAACAA: 0.19
GGTGCTGA: -0.301
AACCCCCT: -0.199
GACCCGCA: -0.243
GCGTCACC: -0.363
TAAGACGA: 0.112
CTTAGCAC: -0.0288

Block 6
Target: Hepatocyte nuclear factor 3-beta, forkhead domain (FOXA2, Homo sapiens, UniProt Q9Y261, residues 142-269)
Method: protein-binding microarray
Molecule type: double-stranded DNA, one strand shown
Sample: in vitro
Concentration: not given
Setting: k-mer, scored over probes, only values ≥0.25
Reading: higher = stronger binding
Quantity: E-score
Target sequence (chain): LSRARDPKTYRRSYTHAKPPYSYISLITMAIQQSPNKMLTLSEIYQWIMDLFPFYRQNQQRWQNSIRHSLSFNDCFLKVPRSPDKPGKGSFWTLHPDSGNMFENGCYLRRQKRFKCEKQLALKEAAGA
AAACAATG: 0.348
ATACATCG: 0.251
AACACAAA: 0.281
TAATTATA: 0.325
ACATGTAA: 0.342
AGTCAAAT: 0.276
GATTGATA: 0.301
ACAATAAA: 0.337
GTAAATAA: 0.363
ACGCATAA: 0.279
AAATTCCA: 0.278
AATATCTC: 0.264
GAATACTA: 0.259
TATGTGGA: 0.306
AAATACTA: 0.296
CAATGACA: 0.288
ACACATAC: 0.318
ATTGTTAG: 0.276
ACTACCAT: 0.287
ACACTTAT: 0.322

Excerpt of the above (block 2):
S9M: 55%
T1R: 69.8%
T1H: 71.5%
N85L: 77.1%
K116D: -3.35%
V100K: -12.4%
L156E: 36.4%
G148R: 3.75%
P37K: -9.14%
L164S: 61.6%
L91D: 2.42%
